Results pooled from the literature.
Each line is one published result; not all experiments were run side by side. Values joined by “and” are separate records of one study, mostly repeats; a detail may differ. Numbers after ± are the reported error.

CN1CCCNC(=O)c2cccc(c2)C(=O)NCCCN(C)CCCNc2cccc3c2C(=O)c2cccc(c2C3=O)NCCC1 — result for “log2 fold change”: -1.31 (SAS; RNA-Seq, item: ZNF12 mRNA; 1 µM, 6 h; reference: untreated cells).
[Cl-].[Cl-].[Ru+2].c1cc(-c2ccc3cccnc3n2)nc(-c2ccc3cccnc3n2)c1.c1ccc2cc3nc4c5cccnc5c5ncccc5c4nc3cc2c1 has a phototoxicity index of 3 (A-375; resazurin; added: light 633 nm, 100 J/cm2; reference: dark EC50 over light EC50).
With Cc1cc(C)nc(SCC(=O)Nc2ncc(Cc3cccc(OCc4cn(Cc5ccc(C#N)cc5)nn4)c3)s2)n1 the inhibition was 50.1 ± 4.8% (PC-3M-luc; colony formation, colony forming; 25 µM).
Cc1cc(Cl)cc(-c2ccnc3cc(CN4C(=O)C5C(C4=O)C5(C)C)sc23)c1C[C@@H]1CNCCO1 (some centres unmarked): “S phase cells” 18.7% (CHP-212 parental; PI flow cytometry; 0.1 µM, 24 h).
With C[n+]1ccc(/C=N/NC(=O)c2cncc(C(=O)N/N=C/c3cc[n+](C)cc3)n2)cc1 the ΔTm was 0.8 ± 0.2 °C (MYC parallel G4 DNA; FRET melting; 1 µM, DNA 0.2 µM).
Under “log2 fold change”, Cc1ncsc1-c1ccc(C(C)NC(=O)C2CC(O)CN2C(=O)C(NC(=O)CCCCCCCCCCN2CCCC(Nc3ncc(Cl)c(Nc4ccccc4S(=O)(=O)C(C)C)n3)C2)C(C)(C)C)cc1 (centres unmarked) is recorded as -1.13 (22Rv1; RNA-seq, item: ZNF605 mRNA; concentration not given; reference: DMSO).
For CC(C)(C)n1cc(CN(Cc2cn(CC(=O)O)nn2)Cc2cn(C(C)(C)C)nn2)nn1, “amount of labelled product” read 2.76 pg/µg protein and 3.09 pg/µg protein and 3.25 pg/µg protein (OVCAR-5, HPG-incorporated; live-cell CuAAC, LC-ESI-MS/MS; membrane proteins; 200 µM, 10 min, adherent cells, no pre-treatment, added: 500 µM sodium ascorbate, CuSO4).
CCCCCCCCCCCC(=O)N[C@H](CO)C[C@@H](O)c1ccccc1 has a ceramide level of 28300 pmol/sample and 22300 pmol/sample and 25600 pmol/sample (HeLa; CERT activity, HPLC-MS/MS lipidomics, item: ceramide 24; 1 µM, 24 h, not cell-number normalised).
Cc1cccc(NC(=O)CC(=O)Nc2ccc3[nH]nc(/C=C/c4ccccn4)c3c2)c1 has a GI50 of 1 µM (Ba/F3 TEL-VEGFR1; cell growth, CCK-8).
COc1cc(N2CCN(C(=O)CCOCCNC(=O)[C@@H]3CCCN3)CC2)ccc1Nc1ncc(Cl)c(Nc2ccccc2P(C)(C)=O)n1 — result for “late apoptotic cells”: 2.4% (NCI-H3122; annexin V/PI flow cytometry; 500 nM, 24 h).
The GI50 of CCN(C(=O)c1cc(F)ccc1Oc1nncnc1N1CCC2(C1)CN([C@H](CCCN(C)CCOC)C(C)C)C2)C(C)C is reported as > 10 µM (Caco-2; cell growth or viability; 7 days).
Under “cells in G1 phase”, COc1cc(/C=C/C(=O)CC(C)=O)ccc1O is recorded as 18.2% (A549; PI staining flow cytometry; 50 µM, 48 h).
CNS(=O)(=O)Nc1nccc(Cc2c(C)c3ccc(Oc4ncccc4F)cc3oc2=O)c1F has an IC50 of 0.00167 µM (EOL1; cell viability; 7 days).
CC(=O)OC[C@H]1O[C@@H](n2cc(CSc3nc4ccccc4n3Cc3cn([C@@H]4O[C@H](COC(C)=O)[C@@H](OC(C)=O)C(OC(C)=O)[C@H]4OC(C)=O)nn3)nn2)[C@H](OC(C)=O)C(OC(C)=O)[C@@H]1OC(C)=O (stereo in doubt) has a cytotoxicity of 91.1% (Caco-2; MTT; 250 ppm).
The live cells of [177Lu+3].[Cl-].[Cl-].[Cl-] is reported as 72.8% (4T1; flow cytometry; 0.4 Bq/cell, 48 h).
CC(C)(C)c1cc(-c2ccc3cccnc3n2)nc(-c2ccc3cccnc3n2)c1.COc1ccncc1.[Cl-].[Cl-].[Ru+2].c1ccc2cc3nc4c5cccnc5c5ncccc5c4nc3cc2c1 has an EC50 of 0.591 ± 0.006 µM (SK-MEL-28; photocytotoxicity; visible light 400-700 nm, 100 J/cm2, oxygen 18.5%).
The colony count of CO[C@@H]1[C@@H](OC(N)=O)[C@@H](O)[C@H](Oc2ccc3c(O)c(NC(=O)c4ccc(O)c(CC=C(C)C)c4)c(=O)oc3c2C)OC1(C)C is reported as 62 (DLD-1 parental; 75 µM, replicate 2).
The IC50 of NC(=O)c1ccc(-c2ccccc2Cl)c2c3c([nH]c12)CCC(N)C3 (centres unmarked) is reported as 0.0184 µM (Ramos; cell growth or viability; 96 h).
Cn1ncc2cc(-c3cncc(Cl)c3N3CCC4(CCNC4=O)CC3)ccc21 — result for “fold change in expression”: -3.29 (LS174T; microarray, item: IL17C; concentration not given, 24 h, gene set IL-17C; reference: untreated cells).
Under “log2 fold change”, O=C1CC[C@H](N2Cc3cc(-c4ccn5ncc(Cl)c5n4)ccc3C2=O)C(=O)N1 is recorded as -3.3 (MOLM-13; RNA-seq, item: MCM4 mRNA; 200 nM, 24 h; reference: DMSO).
For CC(C)(C)c1cc(-c2ccc3cc4ccccc4nc3n2)nc(-c2ccc3cc4ccccc4nc3n2)c1.Cc1ccncc1.[Cl-].[Cl-].[Ru+2].c1ccc2cc3nc4c5cccnc5c5ncccc5c4nc3cc2c1, the phototoxicity index was 4 (A-375; resazurin; added: light 733 nm, 100 J/cm2; reference: dark EC50 over light EC50).
Cn1c(=O)n(C2CCC(=O)NC2=O)c2ccc(C3CCN(CC(=O)Nc4cccc(CS(=O)(=O)N5CC[C@H](Nc6cccc(-c7sc(C(=O)O)c(OCC(=O)O)c7Cl)c6)CC5(C)C)c4)CC3)cc21 (some centres unmarked) gave a fold change of 5.77 and 5.5 and 5.17 and 4.36 and 5.37 and 5.57 (B16-F10; HTRF, item: phospho-STAT1 Tyr701; 10 µM, added: IFN-γ; reference: DMSO).
For CN(C)c1ccc(-n2cc(COC(=O)[C@]3(C)C=C(C(=O)OC(C)(C)C)C(=O)CC3)nn2)cc1, the luminescence was 7860 a.u. (AP-1 reporter HEK293; AP-1 reporter gene, luciferase reporter; 1 µM, 6 h, added: PMA 6 ng/mL; higher = more transcription).
Oc1ccnc(-c2cc(O)ccn2)c1.[Cl-].[Cl-].[Ru+2].c1ccc(-c2ccnc3c2ccc2c(-c4ccccc4)ccnc23)cc1.c1ccc(-c2ccnc3c2ccc2c(-c4ccccc4)ccnc23)cc1 gave a phototoxicity index of 480 (MCF-10A; cell viability; reference: dark EC50 over light EC50).
CCN(CC)CC(=O)Nc1cccc(-n2cc(-c3ccc4ccc(-c5cn(-c6cccc(NC(=O)CN(CC)CC)c6)nn5)cc4c3)nn2)c1 has a fold regulation of -1.08 (RCC4; PCR angiogenesis array, item: EFNB2; 5 x IC50, 2 h, normoxia; reference: untreated).
COC(=O)c1cc(NC2=NC(=O)C(=Cc3ccc(C)cc3)S2)ccc1OC(C)=O gave a metabolite level of -0.13 fold change (MCF7; GC-MS, item: Dl-Phenylalanine; 1 µM; reference: DMSO).
CC(C)c1ccc(N(C)c2ccc3c(c2)OCC[C@H]3CNc2cnccc2C(=O)O)cc1 gave an IC50 of 0.00924 µM (SW1463; cell growth or viability, ATP luminescence; 7 days).
The ΔTm of C[n+]1ccc(/C=N/NC(=O)c2ccc3ccc(C(=O)N/N=C/c4cc[n+](C)cc4)nc3n2)cc1 is reported as 0.2 ± 0.5 °C (hp2 hairpin duplex DNA; FRET melting; 1 µM).
COc1ccccc1-c1ccncc1C(=O)Nc1nnc(OCc2ccc(Cl)cc2)s1 has a colony count of 79 and 79.5 and 69 (DLD-1 parental; 2 µM, mean of replicates).
